# Experimental data collected from several papers.
# Numbered parts are unrelated; each lists some results of a single study. Changes are numbered by the printed parent chain.

# Series 1
# Target: RNA binding protein fox-1 homolog 2, RRM domain, GST-SBP tag (RBFOX2, Homo sapiens, UniProt O43251-10, residues 100-194)
# Method: RNA Bind-n-Seq
# Form: RNA
# Sample: in vitro
# Tested at: 365 nM
# Notes: natural RNA segment, single round, ends assumed
# Baseline: no-protein control
# Reading: higher = stronger binding
# Constant ends, left off below: GGGAGUUCUACAGUCCGACGAUC … UGGAAUUCUCGGGUGCCAA
# Target sequence (chain): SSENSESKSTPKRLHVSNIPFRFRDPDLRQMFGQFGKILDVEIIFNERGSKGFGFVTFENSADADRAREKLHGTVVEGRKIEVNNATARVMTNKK
Sequence,RBNS enrichment (R)
AGCUGUUCCUGUGUUCUUCGUAUAUACACACAAAAAGGAGCGGGCAGGGCCGCUCGAUGCCUUUGCUGUUUAGCUUCCUCCAGAGGAGGGGACUUGUAGGAAUCUGCCUU,0.341
UGUAUGUAUCAUAUGUUUGUUCAUCAAAGCUUUUUAAUCCAAAUAAAAACAACAGUUUGCAAAGUGAUUUGGAUCAGCCAGGUUUGGUGGUUCUGUUUAAAGUGUGUCAA,2.08
GGCUCAGAUCUGUCCAAGGGCGGAGGCAGGUGGUAUUGAAAAGGAAACGAAUCCUUGAGAGGAGCACUGUCCCGUCCCUUGCUCCUUAUGGCUGGUCCUCCUUCUUGCUC,0.375
CCUAAGCCAGCUGCCCCCAGAGCCACAGUUCCCCUAUGUGGAAGUGGGGCGGGCUUCAUAGAGACUUGGGAAUGAGCUGAAGGUGAAACAUUUUCUCCCUGGAUUUUUAC,1.47
GCAAGGAGCAAGGACUUGGGCUUCUCCACGCUUUGCUCCUGGCUUGUUUGACCUUGACUCAUUCCCCAUAUGUCUUUGAGGAGGCUCACAAAAUACUAAAGCUGGGAGGA,0.372
UUUUUAAUUAUGUACUGGGGACAGGUUUUUGUCGCUUUACAUUGCUUCCUAGUUUACAGCAUGAUGCAAAUGAUUUUCUAACUUAGUGUUAGGAGAAAAUAUUUUCCAUC,0.548
ACUAAUGGGUACUCUGAACUCAUUAACAUUGACAUCUGCAACAGGAGGCAACAGGGAAAAAAUCUCAUCUUCUUUUCCAGUAGAAAAUAGUUUGUGAAAUGAUGAGGGCA,5.71
AGGCAAUACAGUGGGACAGUUAGGAAUGCACCCGGGGCCUCCUGCAGAUUUCGGAAAUUGGCAAGCUACGGGAUUCCUUCCUGAAAGAUCAACUGUGUCUUAAGGCUCUC,0.508
UUUGGAAACCCCUCUCCUCACCUCCCACCGUGACCUUGGGCAAACCCUGGCUCGGAGCCCAGGGCAGAGGCAGCUCAGAGUGGAGGCUCUAGGCAGGUUUGACAAAGGUC,0.524
GCCAGGACAUCCUGCUAUCAAUCAGAAGGACUUGGACUCUCCUGCAGAGUGCAAGUGUGGGUGUCGGUGUGAGUUCACCUAACAAAUCAUGACCUUUAUCAUCAACUCUG,0.207
GUUCAUUGUUUGCCCUGCUAGGAAUUAGAAGACAGACACCAUGUCCCAGGACAGUGUUACUUCUUCUGCAUGAUGUGUGGUAGACUCCCUUUGCUGGCUUGUGCAGUGAU,13.9
UGCUGUCAGCCUUUGGGACAGUGGCUCUCAAAAGCCAAGAGCUCUUGGUUUAUCUGCACAGUACAAGCUGCUGGUAGACUACACUAGCCCUCUGGUUUCCCAGCGCAGCC,0.323

# Series 2
# Target: Sal-like protein 4, full length isoform B (SALL4, Homo sapiens, UniProt Q9UJQ4-2, residues 1-616)
# Method: universal PBM
# Form: double-stranded DNA, one strand shown
# Sample: in vitro
# Tested at: not given
# Notes: 8-mer, flanks averaged, mean of replicates
# Reading: higher = stronger binding
Sequence,E-score
AAGGGAAA,0.228
ATCAAATC,0.19
AGCTAGGG,-0.134
CCTCCCCC,-0.179
TGAAGACA,0.122
CACGACCG,-0.287
CCACCTAG,-0.231
CGTAAGCC,-0.15
AAATTGTT,0.352
CGGTGCAA,-0.143
CACTACAA,0.114

# Series 3
# Target: CCNE2, cyclin fold, Cln2 fusion (human)
# Method: yeast growth competition, sequencing
# Sample: yeast
# Notes: strong parent motif
# Baseline: not given
# Reading: higher = stronger binding
# Starting sequence: RBL1 docking peptide (human); GSAKRRLFGEDPP; partner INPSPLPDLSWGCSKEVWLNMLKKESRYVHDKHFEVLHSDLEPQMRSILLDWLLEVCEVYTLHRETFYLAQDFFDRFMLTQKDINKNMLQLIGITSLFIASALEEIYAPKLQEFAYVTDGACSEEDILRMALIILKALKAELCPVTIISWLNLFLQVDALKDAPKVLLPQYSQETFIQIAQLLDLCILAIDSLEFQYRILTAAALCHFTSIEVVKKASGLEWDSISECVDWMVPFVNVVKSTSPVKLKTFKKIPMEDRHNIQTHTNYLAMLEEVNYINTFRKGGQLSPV
Variant,normalised enrichment score
R6P,-0.231
G9R,4.63
P13W,4.57
R5G,0.117
K4G,0.00111
P12H,3.85
F8A,0.459
G1T,4.91
S2E,2.87
G9K,4.44
A3K,1.28
E10F,3.39
R5V,0.0353
R5L,0.0402
L7A,0.0685

# Series 4
# Target: Interferon regulatory factor 5, full length, phosphomimetic (IRF5, Homo sapiens, UniProt Q13568-2, residues 1-514, S451D/S453D/S456D/S462D)
# Method: protein-binding microarray
# Form: double-stranded DNA, one strand shown
# Sample: in vitro
# Tested at: 940 nM top
# Notes: 60-bp whole probe
# With: salmon DNA 0.4 mg/ml
# Baseline: random background probes
# Reading: higher = stronger binding
# Constant ends, left off below: GCCTAGCAC … GTCTTGATTCGCTTGACGCTGCTG
Sequence,fitted relative affinity
TCAACTTTGCTCTGTGCGACTGTGCTA,-0.0875 z-score
TCCCTTTCAGTTTTCCTATGGTGCTAG,2.68 z-score
GACGGTATCCTACTGCAGACGTGCTAG,-0.011 z-score
TTAGGACTGGGGACTGGGTTCGTGCTA,-0.289 z-score
TCATCGTAAGCAAAAATACTGTGCTAG,-0.171 z-score
TCTCTTTCCACTTGTCTTTTCGTGCTA,3.73 z-score
TTAGGACTGGCCACTGGGTTAGTGCTA,-0.421 z-score
TCAACTCCCCAACTCGCACTGTGCTAG,0.223 z-score
CAGGGTCTCGCTTCATCTCCGTGCTAG,1.17 z-score
TTAGATTCCAGTTTCGAATAGTGCTAG,3.96 z-score
TTAGGACTGGGGTTTCGGTGAGTGCTA,3.72 z-score
TTAGATTCCAGTTTGGATTAGTGCTAG,-0.214 z-score
TTAGGACTGCTAGTGCTTTAGTGCTAG,-0.247 z-score

# Series 5
# Target: Ras GTPase-activating protein-binding protein 1, full length (G3BP1, Homo sapiens, UniProt Q13283)
# UniProt Q13283, sequence (whole entry, looked up): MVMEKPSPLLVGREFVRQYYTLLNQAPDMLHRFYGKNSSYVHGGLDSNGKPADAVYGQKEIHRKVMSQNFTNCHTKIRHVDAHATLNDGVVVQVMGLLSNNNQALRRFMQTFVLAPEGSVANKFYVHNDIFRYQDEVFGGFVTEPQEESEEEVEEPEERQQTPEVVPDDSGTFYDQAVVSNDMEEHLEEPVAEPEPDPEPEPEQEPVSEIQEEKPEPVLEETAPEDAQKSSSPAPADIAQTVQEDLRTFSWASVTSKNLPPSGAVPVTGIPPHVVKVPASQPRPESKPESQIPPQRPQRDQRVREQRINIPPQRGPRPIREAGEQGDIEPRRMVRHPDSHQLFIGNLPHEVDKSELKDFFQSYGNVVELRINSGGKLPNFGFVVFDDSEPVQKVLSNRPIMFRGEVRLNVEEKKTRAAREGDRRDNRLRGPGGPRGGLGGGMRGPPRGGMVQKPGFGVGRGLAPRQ
# Method: RNA Bind-n-Seq
# Form: RNA
# Sample: in vitro
# Tested at: 200 nM
# Notes: whole 134-nt RNA, ends assumed
# With: 150 mM KCl
# Baseline: input library
# Reading: higher = stronger binding
# Constant ends, left off below: GGGAGUUCUACAGUCCGACGAUC … UGGAAUUCUCGGGUGUCAAGG
Sequence,log2 enrichment
UGUGAGCGGAGCCUGGAGGAGCUGCUGCACUACGUGGGCCAGCUGCGGGCUGAGCUGGCCAGCGCAGGUGGGUGGCCACCCUUGCAAGUG,0.117
CUCAAGUCCUGUGCUACACAUCGUAUGUACCGAAUCGGGCCGGGCCGGCCGGGGAAAGUAUUAUGUUACGCCGUUCGGAUCUGCACUUCC,-0.277
CUCAAGUCCUGUGCUACACAUCGUAUGUACCGAAUCGGGUGGGGUGGGUGGGGAAAGUAUUAUGUUACGCCGUUCGGAUCUGCACUUCCA,0.905
CCUCAAGUCCUGUGCUACACAUCGUAUGUACCGAAUCGGAGGAAAAAGGUGGAAAGUAUUAUGUUACGCCGUUCGGAUCUGCACUUCCAG,-0.0857
CACAGACAACACGCACCCACACAGACACAGAGGGAAGGGGUUGGGAUGGGGACAGGGUGCAAAGCAGGGCGGGGUAGGACCCCAGCCCCU,1.69
UGGCCCUGGUGGCAUGCAGGGAGGAAGAGGUGGCCUCAUGGAUCGUGGUGGUCCCGGUGGAAUGUUCAGAGGUGGCCGUGGUGGAGACAG,0.0256
GUCCUGUGCUACACAUCGUAUGUACCGAAUCGGGCCCCCGGCCCCCGGGGCCCCCGGGAAAGUAUUAUGUUACGCCGUUCGGAUCUGCAC,-1.03
GUCCUGUGCUACACAUCGUAUGUACCGAAUCGGGGUGGGGAAAAAAAGGGGUUUGGGGAAAGUAUUAUGUUACGCCGUUCGGAUCUGCAC,0.322
UCCUGUGCUACACAUCGUAUGUACCGAAUCGGGGAAAAAGGGGAAAAAGGGGAAAAAGGAAAGUAUUAUGUUACGCCGUUCGGAUCUGCA,-0.0659
AAGUCCUGUGCUACACAUCGUAUGUACCGAAUCGGGUUUUUGGGUGGGUUUUUGGGAAAGUAUUAUGUUACGCCGUUCGGAUCUGCACUU,0.0794

# Series 6
# Target: Histone acetyltransferase KAT6A, winged helix 1, GST fusion (KAT6A, Homo sapiens, UniProt Q92794, residues 1-85)
# Method: protein binding microarray
# Form: double-stranded DNA, one strand shown
# Sample: in vitro
# Tested at: not given
# Notes: 8-mer, flanks averaged, mean of 2 arrays, mostly near background
# Baseline: not given
# Reading: higher = stronger binding
# Construct (chain): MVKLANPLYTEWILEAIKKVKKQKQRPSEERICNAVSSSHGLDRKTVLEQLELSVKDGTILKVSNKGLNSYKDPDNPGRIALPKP
Sequence,E-score
AACTACGT,-0.035
ATTTAGGA,-0.218
AAGCTTCT,-0.172
CCCGTACA,0.281
GACTTGGA,-0.187
ATTGGCCC,-0.202
CTTGTGGA,-0.157
GGACAAGA,0.0742
AAAGGGCT,-0.178
TAATTCAA,-0.166
GATCTACA,-0.17
ACCTTGAT,-0.204
CACATTGC,0.0859
CAGGTAGC,0.0105
CCCTACCG,0.123
TATACCAA,-0.107

# Excerpt of the above (series 5):
Sequence,log2 enrichment
UGUGAGCGGAGCCUGGAGGAGCUGCUGCACUACGUGGGCCAGCUGCGGGCUGAGCUGGCCAGCGCAGGUGGGUGGCCACCCUUGCAAGUG,0.117
CUCAAGUCCUGUGCUACACAUCGUAUGUACCGAAUCGGGCCGGGCCGGCCGGGGAAAGUAUUAUGUUACGCCGUUCGGAUCUGCACUUCC,-0.277
UGGCCCUGGUGGCAUGCAGGGAGGAAGAGGUGGCCUCAUGGAUCGUGGUGGUCCCGGUGGAAUGUUCAGAGGUGGCCGUGGUGGAGACAG,0.0256
CACAGACAACACGCACCCACACAGACACAGAGGGAAGGGGUUGGGAUGGGGACAGGGUGCAAAGCAGGGCGGGGUAGGACCCCAGCCCCU,1.69
CUCAAGUCCUGUGCUACACAUCGUAUGUACCGAAUCGGGUGGGGUGGGUGGGGAAAGUAUUAUGUUACGCCGUUCGGAUCUGCACUUCCA,0.905
CCUCAAGUCCUGUGCUACACAUCGUAUGUACCGAAUCGGAGGAAAAAGGUGGAAAGUAUUAUGUUACGCCGUUCGGAUCUGCACUUCCAG,-0.0857
UCCUGUGCUACACAUCGUAUGUACCGAAUCGGGGAAAAAGGGGAAAAAGGGGAAAAAGGAAAGUAUUAUGUUACGCCGUUCGGAUCUGCA,-0.0659
GUCCUGUGCUACACAUCGUAUGUACCGAAUCGGGGUGGGGAAAAAAAGGGGUUUGGGGAAAGUAUUAUGUUACGCCGUUCGGAUCUGCAC,0.322
AAGUCCUGUGCUACACAUCGUAUGUACCGAAUCGGGUUUUUGGGUGGGUUUUUGGGAAAGUAUUAUGUUACGCCGUUCGGAUCUGCACUU,0.0794
